Measured values of several laboratories.
Every numbered part comes from another study and shows a few of its results, in no order.

Sample 1
Target: RNA binding protein fox-1 homolog 2, RRM domain, GST-SBP tag (RBFOX2, Homo sapiens, UniProt O43251-10, residues 100-194)
Technique: RNA Bind-n-Seq
Form: RNA
Sample: in vitro
Tested at: 365 nM
Setting: natural RNA segment, single round, ends assumed
Reference: no-protein control
Reading: higher = stronger binding
Shared flanks, not repeated: GGGAGUUCUACAGUCCGACGAUC … UGGAAUUCUCGGGUGCCAA
Target sequence (chain): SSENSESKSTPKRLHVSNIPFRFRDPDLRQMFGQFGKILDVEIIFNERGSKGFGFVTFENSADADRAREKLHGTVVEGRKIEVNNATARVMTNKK
| Oligonucleotide | RBNS enrichment (R) |
| --- | --- |
| UAUCAUAUCAUGCUUCAACUAUUAAAUUAAGCCCAUCAUAUCAUAGCACUAAAAAGAUUGAGUUAAAAAUAAGAUUUAAAAAAUAUAUAUUGAUUAAAAUGUACCACUAG | 0.856 |
| UAGGAAAAGUUAUUGUGAUAAAAUAGGAACAGCUGAAAGAUUGAUUAAUGAACUAUUGUUAAUUCUUCCUAUUUUAAUGAAUGACAUUGAACUGAAUUUUUUGUCUGUUA | 0.643 |
| AUCAGGUUAGGCAGUAUAAAGAAUAGGACUUGUUUUUGUUUUUGUUUUGUUGCACUGAAGUUUGAUAAAUAGUGUUAUUGAGAGAGAUGUGUAAUUUUUCUGUAUAGACA | 0.432 |
| CACUUAGCCCUGGUUGAGGUGCAUUGUCUGCUGUCGUCUGUUAAGCAUCUAACCGGAGUGGGAGGGCACAUCAAGCGAUUUCACUCUCUUAAAGAAAAGGUUUUUAGGUA | 0.543 |
| AGCCCUUAUUUGGAAAGUGUGAAAUUUGUAUUUGGAAAAGCUGCCUGGAGAGAAGAACUGUGUCCUUUACUGUAUUUCAACAGGACUCUUUUGGGGGAUCAAAAUUAAAA | 1.36 |
| GGCAAGUCUCAGGGGAAGCUCAUGUCUUUCUGCUUUACAAAGUGCUUCAAGCGUCAGCUCCAAGUGUCCUUAUGUCAGCAGGAUUUGUUUCCUUCUAGUCCCCCCCCCCC | 0.258 |
| CCCUUCCAUGCCAGCCCUUCCUGCUGCCUCCCUCCUGUCUGGCUCCUGGGGCCCAUGCUUAGAGCCCAGGCUCCAGCCCUGAGUGCUUCCGAGCUGGCGGACUGCCCAGG | 0.932 |
| GGGCUCUUCUGGUCCUGUGCAUACCUAUUGCCUUUGACAGAACGGUACAGUUUGUUUAUGCAGGAGGAUGGCAUGCCAACUUCCCAGCUGCCUACUAGCAGUUUAACAAG | 0.513 |

Sample 2
Target: Interferon regulatory factor 7, full length, phosphomimetic (IRF7, Homo sapiens, UniProt Q92985, residues 1-503, S471D/S472D/S475D/S476D/S477D/S483D/S484D/S487D)
Sequence of UniProt Q92985 (whole entry, unmodified, looked up): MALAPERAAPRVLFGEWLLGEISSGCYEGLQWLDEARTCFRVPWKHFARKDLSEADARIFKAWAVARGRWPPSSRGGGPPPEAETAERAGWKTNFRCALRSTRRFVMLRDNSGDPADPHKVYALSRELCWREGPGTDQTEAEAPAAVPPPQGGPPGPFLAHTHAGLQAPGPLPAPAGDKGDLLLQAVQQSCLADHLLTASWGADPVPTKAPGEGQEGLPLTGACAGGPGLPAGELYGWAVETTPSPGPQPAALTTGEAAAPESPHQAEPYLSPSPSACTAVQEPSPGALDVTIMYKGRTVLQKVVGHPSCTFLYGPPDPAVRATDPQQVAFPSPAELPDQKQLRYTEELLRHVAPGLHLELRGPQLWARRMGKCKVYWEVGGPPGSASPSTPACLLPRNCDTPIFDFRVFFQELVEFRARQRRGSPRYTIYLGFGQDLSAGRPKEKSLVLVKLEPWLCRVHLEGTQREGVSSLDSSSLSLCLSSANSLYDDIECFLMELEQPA
Technique: protein-binding microarray
Form: double-stranded DNA, one strand shown
Sample: in vitro
Tested at: 2200 nM top
Setting: 60-bp whole probe
Added: salmon DNA 0.4 mg/ml
Reference: random background probes
Reading: higher = stronger binding
Shared flanks, not repeated: GCCTAGCAC … GTCTTGATTCGCTTGACGCTGCTG
| Oligonucleotide | fitted relative affinity [z-score] |
| --- | --- |
| ATGCATGTGCTGTCTCAGAGTGTGCTA | 1.02 |
| CAGAATCCCCTTCTACTCTCGTGCTAG | 1.05 |
| CTTGTGCTCCTTTTAATTTTGTGCTAG | 0.834 |
| GAGGCTTTTTTTTTTTTTTTGTGCTAG | 0.0578 |
| TTAGCACTGGGTTTCGGTTAGTGCTAG | 4.06 |
| GACGGGATCGGACTGGGGACGTGCTAG | -0.569 |
| GAAGGACTGGGTATCGGGACGTGCTAG | -0.755 |
| GTAGAACTGGGGTTTCGATTAGTGCTA | 2.21 |
| TTAGGTTTCTTACTGCTTTAGTGCTAG | 1 |
| GACGGTATTGGGTTTCGGGACGTGCTA | 1.42 |
| TTAGAATTGGGGACTGGATTAGTGCTA | -0.184 |
| GACGATATCGGGAGTGGAGACGTGCTA | -0.172 |
| GACGTTATCGGGACTGGAGACGTGCTA | 0.061 |
| GTCGGTATCCTACTGCTGACGTGCTAG | 1.3 |
| TTAGGCATCCTTTTCCTTTAGTGCTAG | 0.844 |
| GAGGGACTGGGTCTCGGGACGTGCTAG | -1.1 |
| TCAGTTTCACTTTCCAAACTGTGCTAG | 10.7 |
| TTAGGTTTCGACTCTCGGTTAGTGCTA | 6.42 |
| TCTCTTTTATTTTTTTTATTGTGCTAG | 1.63 |

Sample 3
Target: Histone acetyltransferase KAT6A, both winged helices, GST fusion (KAT6A, Homo sapiens, UniProt Q92794, residues 1-181)
Technique: protein binding microarray
Form: double-stranded DNA, one strand shown
Sample: in vitro
Tested at: not given
Setting: 8-mer, flanks averaged, mean of 2 arrays, mostly near background
Reference: not given
Reading: higher = stronger binding
Residues (chain): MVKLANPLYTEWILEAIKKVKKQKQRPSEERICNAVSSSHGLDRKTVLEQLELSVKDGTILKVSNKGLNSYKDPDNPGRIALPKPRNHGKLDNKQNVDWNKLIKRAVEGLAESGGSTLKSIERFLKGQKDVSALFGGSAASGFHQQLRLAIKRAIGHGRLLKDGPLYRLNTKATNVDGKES
| Oligonucleotide | E-score |
| --- | --- |
| ATCAATGC | 0.0541 |
| GATAAACC | 0.121 |
| GCATATTA | 0.078 |
| CTGACCAG | -0.0549 |
| GACGCCCC | 0.057 |
| TAATACAA | -0.0836 |
| GGCACACC | -0.0861 |
| GCTCGTAA | -0.0466 |
| GGCGCTTA | 0.263 |
| AGTGCAGC | 0.0524 |
| ACACAGGA | -0.102 |
| GGGAAACA | 0.0802 |
| CATTCAAA | -0.0622 |
| TCGTTTAA | -0.1 |
| AAGGTCGT | -0.153 |
| CCTGAAAG | -0.165 |
| GCGGCCCC | 0.163 |
| ACTGTAAG | -0.0213 |
| GCCGCTCC | 0.277 |
| CATCTTGA | -0.186 |
| ACTTAAAG | -0.205 |
| AAGAAGAC | -0.139 |
| ATATGGAT | -0.16 |
| AGCTCTGA | -0.101 |

Sample 4
Target: Sal-like protein 4, full length isoform A (SALL4, Homo sapiens, UniProt Q9UJQ4, residues 1-1053)
Sequence of UniProt Q9UJQ4 (whole entry, looked up): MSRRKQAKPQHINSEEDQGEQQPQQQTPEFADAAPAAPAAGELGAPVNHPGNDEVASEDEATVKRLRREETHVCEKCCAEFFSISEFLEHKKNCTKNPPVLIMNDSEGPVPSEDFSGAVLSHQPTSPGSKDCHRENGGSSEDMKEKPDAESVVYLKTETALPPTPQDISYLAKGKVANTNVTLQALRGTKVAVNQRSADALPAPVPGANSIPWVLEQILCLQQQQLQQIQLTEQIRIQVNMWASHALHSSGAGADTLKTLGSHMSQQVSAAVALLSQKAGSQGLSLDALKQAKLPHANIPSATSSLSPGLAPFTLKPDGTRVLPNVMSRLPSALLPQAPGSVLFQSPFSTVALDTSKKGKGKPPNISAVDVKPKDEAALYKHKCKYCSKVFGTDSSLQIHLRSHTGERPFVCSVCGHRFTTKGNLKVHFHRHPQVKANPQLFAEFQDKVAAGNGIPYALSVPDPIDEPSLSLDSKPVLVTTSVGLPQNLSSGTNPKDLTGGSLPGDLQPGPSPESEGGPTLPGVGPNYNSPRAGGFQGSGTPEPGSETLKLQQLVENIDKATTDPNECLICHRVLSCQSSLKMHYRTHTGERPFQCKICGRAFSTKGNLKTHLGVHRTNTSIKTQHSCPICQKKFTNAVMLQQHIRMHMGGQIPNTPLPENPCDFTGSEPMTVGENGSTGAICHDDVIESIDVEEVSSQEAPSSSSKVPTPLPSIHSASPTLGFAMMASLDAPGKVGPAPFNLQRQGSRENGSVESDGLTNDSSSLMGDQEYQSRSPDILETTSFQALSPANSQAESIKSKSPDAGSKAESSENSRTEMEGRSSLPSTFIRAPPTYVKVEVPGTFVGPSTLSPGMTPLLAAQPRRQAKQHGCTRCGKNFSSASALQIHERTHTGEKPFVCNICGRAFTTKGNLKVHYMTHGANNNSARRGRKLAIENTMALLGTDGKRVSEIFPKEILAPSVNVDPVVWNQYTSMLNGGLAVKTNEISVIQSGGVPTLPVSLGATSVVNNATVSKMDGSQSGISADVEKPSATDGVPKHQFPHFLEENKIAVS
Technique: universal PBM
Form: double-stranded DNA, one strand shown
Sample: in vitro
Tested at: 600 nM
Setting: 8-mer, flanks averaged, mean of replicates
Reading: higher = stronger binding
| Oligonucleotide | E-score |
| --- | --- |
| AGCTCCCA | -0.267 |
| ATTCCCTA | 0.14 |
| CTTATATC | 0.321 |
| ATGGGCCG | -0.196 |
| ATAGGAGG | 0.0131 |
| CGGGGCAC | -0.26 |
| AGTCCGGA | -0.0712 |
| CGAACAGA | 0.0756 |
| CCAACAGC | -0.236 |
| CCGGCTCC | -0.406 |
| AATGCTCC | -0.184 |
| CCAATCAG | -0.221 |
| AGGTCGGC | -0.227 |
| GGAGCCCA | -0.325 |
| ATATGCGG | 0.233 |
| CCGCGGAG | -0.364 |
| GTACGACA | 0.0206 |
| GATTCCCC | -0.258 |
| CACTAAGA | -0.147 |
| CCCCTTCC | -0.32 |
| ATAGCTCG | -0.0517 |
| GAGAATAC | 0.127 |
| CTTACGGC | -0.193 |
| CGACGGAG | -0.129 |
| ATCTTGAG | 0.0671 |

A few entries again (sample 2):
| Oligonucleotide | fitted relative affinity [z-score] |
| --- | --- |
| GAGGGACTGGGTCTCGGGACGTGCTAG | -1.1 |
| GAGGCTTTTTTTTTTTTTTTGTGCTAG | 0.0578 |
| GTAGAACTGGGGTTTCGATTAGTGCTA | 2.21 |
| GAAGGACTGGGTATCGGGACGTGCTAG | -0.755 |
| TTAGAATTGGGGACTGGATTAGTGCTA | -0.184 |
| GACGTTATCGGGACTGGAGACGTGCTA | 0.061 |
| GACGGGATCGGACTGGGGACGTGCTAG | -0.569 |
| ATGCATGTGCTGTCTCAGAGTGTGCTA | 1.02 |
| TTAGGCATCCTTTTCCTTTAGTGCTAG | 0.844 |
